Measurements of several laboratories.
A part holds a random share of what one study measured.

Block 1
Target: Ras GTPase-activating protein-binding protein 1, full length (G3BP1, Homo sapiens, UniProt Q13283)
Sequence of UniProt Q13283 (whole entry, looked up): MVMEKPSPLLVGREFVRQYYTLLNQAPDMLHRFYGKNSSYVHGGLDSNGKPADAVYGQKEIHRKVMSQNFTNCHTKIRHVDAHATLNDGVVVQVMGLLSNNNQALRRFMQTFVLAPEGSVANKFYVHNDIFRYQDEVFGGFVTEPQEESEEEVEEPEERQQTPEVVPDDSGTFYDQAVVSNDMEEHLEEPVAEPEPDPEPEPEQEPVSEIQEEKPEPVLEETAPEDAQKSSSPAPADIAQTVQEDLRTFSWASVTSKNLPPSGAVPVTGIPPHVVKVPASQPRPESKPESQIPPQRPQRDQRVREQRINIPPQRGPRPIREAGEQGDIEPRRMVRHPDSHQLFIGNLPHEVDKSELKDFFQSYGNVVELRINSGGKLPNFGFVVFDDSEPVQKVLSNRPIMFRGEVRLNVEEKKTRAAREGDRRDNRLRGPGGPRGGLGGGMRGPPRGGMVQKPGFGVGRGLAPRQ
Technique: RNA Bind-n-Seq
Form: RNA
Sample: in vitro
Concentration: 200 nM
Notes: whole 134-nt RNA, ends assumed
With: 150 mM KCl
Baseline: input library
Direction: higher = stronger binding
Constant ends, left off below: GGGAGUUCUACAGUCCGACGAUC … UGGAAUUCUCGGGUGUCAAGG
| Sequence | log2 enrichment |
| --- | --- |
| GAUGAUUACUAUGGUUAUGAUUAUCACGACUAUCGUGGAGGCUAUGAAGAUCCCUACUACGGCUAUGAUGAUGGCUAUGCAGUAAGAGGA | -1.4 |
| UGGCCCUGGUGGCAUGCGGGGAGGAAGAGGUGGCAUCAUGGAUCGUGGUGGUCCCGGUGGAAUGUUCAGAGGUGGCCGUGGUGGAGACAG | 0.517 |
| CUGUGCUACACAUCGUAUGUACCGAAUCGGGGUUUUUUGGGGUUUUUUGGGGUUUUUUGGGAAAGUAUUAUGUUACGCCGUUCGGAUCUG | -0.384 |
| CACAGACAACACGCACCCACACAGACACAGACGGAAGGGGUUGGGAUGGGGACAGGGUGCACAGCAGGGCGGGGUAGGACCCCAGCCCCU | 1.94 |
| UAACUUUAGAGGAGGAUCUGAUGGAUAUGGCAGUGGACGUGGAUUUGGGGAUGCCUAUAAUGGGUAUGGAGGAGGACCUGGAGGUGGCAA | 0.217 |
| UGGGAGGUGGUUUUUGUUUAUUUUUUUAGCUCAUUUCCAGGGGUGGGAAUUUUUUUUUAAUAUGUGUCAUGAAUAAAGUUGUUUUUGAAA | 0.437 |
| GCAGGAAGUAAAAACACAUGGAAAUGCUUCGGAUAGUGGCAGGGGUGGGGGUUGCUAAGGAAAGGGUGGGAUGGGAGUGGGUAAAGAGUU | 0.833 |
| GCAGGAAGUAAAAACAAAUGGAAAUGCUUCGGAUAGUGGCAGGGGUGGGGGUUGCUCAGGAAAGGGUGGGAUGGGAGUGGGUAAAGAGUU | 1.19 |
| CACAGACAACACGCACCCACACAGACACAGAGGGAAGGGGUUGGGAUGGGGACAGGGUGCACAGCAGUGCGGGGUAGGACCCCAGCCCCU | 1.85 |

Block 2
Target: Prothrombin, mature alpha-thrombin (F2, Homo sapiens, UniProt P00734)
Technique: aptamer microarray, sandwich
Form: DNA with 2'F-ANA
Sample: in vitro
Concentration: 200 nM
Notes: whole 15-mer aptamer, many near background
With: Cy3 exosite-II aptamer, 400 nM
Direction: higher = stronger binding
Sequence: GGTTGGTGTGGTTGG
| Modification | mean fluorescence intensity [a.u.] |
| --- | --- |
| 2'F-ANA at 3 6 7 10 11 13 14 | 456 |
| 2'F-ANA at 1 2 4 5 6 7 8 9 13 14 | 50.2 |
| 2'F-ANA at 1 2 3 5 6 7 8 10 11 12 13 15 | 54.4 |
| 2'F-ANA at 1 5 9 11 13 14 15 | 47.3 |
| 2'F-ANA at 2 6 7 8 11 14 15 | 126 |
| 2'F-ANA at 1 2 4 5 6 8 10 12 13 15 | 50 |
| 2'F-ANA at 1 8 9 10 12 14 15 | 50 |
| 2'F-ANA at 2 3 4 8 10 11 13 | 215 |
| 2'F-ANA at 2 4 5 6 7 11 13 15 | 53.6 |
| 2'F-ANA at 3 7 8 10 11 12 13 14 15 | 371 |
| 2'F-ANA at 1 3 5 6 7 8 9 10 15 | 47.4 |
| 2'F-ANA at 6 9 10 12 14 | 101 |
| 2'F-ANA at 1 3 4 5 6 7 10 11 12 14 | 49 |
| 2'F-ANA at 2 3 5 7 9 10 12 14 15 | 52 |
| 2'F-ANA at 2 5 6 7 11 12 14 15 | 52 |
| 2'F-ANA at 3 4 6 10 12 13 | 280 |
| 2'F-ANA at 2 4 5 6 7 9 11 12 14 | 46.5 |
| 2'F-ANA at 1 2 4 5 6 7 9 10 13 15 | 49.3 |
| 2'F-ANA at 6 11 12 13 14 | 199 |
| 2'F-ANA at 4 5 6 8 11 14 | 43.6 |

Block 3
Target: RING finger protein unkempt homolog, zinc fingers 1-6, GST-SBP tag (UNK, Homo sapiens, UniProt Q9C0B0, residues 30-357)
Sequence of UniProt Q9C0B0 (30-357, looked up): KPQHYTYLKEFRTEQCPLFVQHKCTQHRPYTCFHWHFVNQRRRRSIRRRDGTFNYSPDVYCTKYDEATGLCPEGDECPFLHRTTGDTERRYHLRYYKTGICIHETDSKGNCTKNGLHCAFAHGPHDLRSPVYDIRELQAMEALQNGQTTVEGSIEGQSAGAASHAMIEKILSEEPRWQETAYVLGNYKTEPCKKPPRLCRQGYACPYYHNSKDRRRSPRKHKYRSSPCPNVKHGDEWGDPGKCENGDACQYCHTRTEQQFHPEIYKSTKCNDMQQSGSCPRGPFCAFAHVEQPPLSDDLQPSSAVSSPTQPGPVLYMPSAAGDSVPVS
Technique: RNA Bind-n-Seq
Form: RNA
Sample: in vitro
Concentration: not given
Notes: RNA with constant flanks, human-mouse chimeric sites, ends assumed
Baseline: input RNA pool
Direction: higher = stronger binding
Constant ends, left off below: GGGAGUUCUACAGUCCGACGAUC … CAACAGAGGAUUGAGCAUCA
| Sequence | bound/input enrichment [ratio] |
| --- | --- |
| GAAUCCUACUCAGGCGGAUUUUGCAACACCAAGCUCACAGCAGCAGCUCCAUAGUCACAGUAGGGUAGUUUUGGGGCUCUGUGGCCAGGGUUUUAUUCACAUGCAGGUUUGGAAAAUGUA | 0.7 |
| AAGGUGAUGACUAUGUUUGUCCAACGACAGGUAUUUUCGGAGAGCAAAGAUGAGAUUGCGUUAGUCCUCUAUGGCACAGAUGGCACUGAUAAUGCCCUUUCUGGUGGGGACCAGUAUCAG | 0.216 |
| CGGAGCCCUCCUCUCCCACAGGCCCAAGAUAUAACCCACCAGUGCCUUUUGUCUUCCCGUUAGCUUUAAUCAAUCAUCCUGUCCUCUCACGCCCACACCAAGUGCCCAAAGUGGGGAGGG | 45.5 |
| CUGAGGAAUACCACUGAGAGACCUUAAAAGAAUCAUUUGAGGGCUCUCGUUCGGGCAGAAUAGUCACUGAUCGGGAAACUGGUUCUUCCAAAGGGUUUGGUUUUGUAGACUUUAAUAGUG | 0.678 |
| GGCCUGGGACCGUCCUGGGCUAGUACAAAUAGCGGCAGUGGAGGCUCGAGAGGAAAGUUUGUUAGUGGAGGCAGUGGAGAGGUCGUCCAUGUACGGUCCUUUACUCGUAAAAAUCCUUCU | 0.198 |
| AACGUGGAGUUGAGUUCGCUGGCCCGGCUUCCCAGCUUGAAUAAACUCCGGAAGUUGGAACUUAGUGACAAUAUAAUUUCUGGAGGCUUGGAAGUCCUGGCAGAGAAAUGUCCAAAUCUU | 0.329 |
| AAAGUGAUAACCAUGUUUGUCCAACGACAGGUAUUUUCGGAGAGCAAAGAUGAGAUUGCGUUAGUCCUCUAUGGCACAGAUGGCACUGAUAAUGCCCUUUCUGGUGGGGACCAGUAUCAG | 0.224 |
| AAAGCCCAAGUAUUUUGAAAAAACUCGAACAGAUUUGUCAAGGGUAACCAGCUUGGAGUCUAGCAAUUUGCCAAUGUGUUUACCAAUCUGGGGGCUUGUUUUUCUUUUCUUCUUUCAAAU | 0.329 |

Block 4
Target: RNA binding protein fox-1 homolog 2, RRM domain, GST-SBP tag (RBFOX2, Homo sapiens, UniProt O43251-10, residues 100-194)
Technique: RNA Bind-n-Seq
Form: RNA
Sample: in vitro
Concentration: 365 nM
Notes: natural RNA segment, single round, ends assumed
Baseline: no-protein control
Direction: higher = stronger binding
Constant ends, left off below: GGGAGUUCUACAGUCCGACGAUC … UGGAAUUCUCGGGUGCCAA
| Sequence | RBNS enrichment (R) |
| --- | --- |
| UUGAGUACACUAUUGCUGUCCAUUGCUGCUGUGAAGCCCUAGCUGAAUAUAGAUGUACAAAUCAGUUUGAGCUCUCCUUACAUACUUUGUGUCAGUAUGCAGGACUGCUA | 0.381 |
| UAAUUAAUGCCCCUCUCUUACAGAACACUCCUAUUUGUACCUCAACAAAUGCAAAUUUUCCCCGUUUGCCCUACGCCCCUUUUGGUACACCUAGAGGUUGAUUUCCUUUU | 0.887 |
| GUCUGGAGCUCCACCUUUGCAAAGAAAGGAAAAACACAAAUUGCCCCCAGAUUGGCCCAGUGGCAUGCCAUUAGGUGAUUUUGCAUAGGGGCCAUAUCAUUCAUGGCCAA | 0.432 |
| AUUUAACUGUCAAACAGAGGAAUCUGUGUUUGUUACAAUAAUAUAACAGAUGCCUUGAAGGACCCGCGUCAGGCUUCUGGAGUUGUGAAGGAGGGUGGGAUCUCCUACUC | 0.532 |
| GUUGAAAUCAUUUGAACUAAUCAAGGAAUAAAUCCUAAUGUUCUGGGACUUUAUUUUCACAUGUUAAAUGCUGGAAUAUAUUAUGAAAAUGUUUUCAAGAAAUCACUUAA | 0.394 |
| ACAACAGUGUGUAUGCAGCCGUGCUUACAGCCUGUGGUUGCUACCUGUUGUACCAGUCUGACCAGUGUUUGGAAUGUUCAGACAUAAUCUCCUGUGUGAAGCUCAAGGUC | 0.549 |
| ACACUUGCAGGACUGAAAGGCUGCUCUGGUGAGGCAGCCUCUGUUUAAACCGGCCCCACAUGAAGAGAACAUCCCUUGAGACGAAUUUGGAGACUGGGAUUAGAGCCUUU | 0.653 |
| GCCAUUAACCAAAGGACAGAUGUGUAUAUGUGUGUGUGUGUAUGUGUGUGUAUGUAUAUGAUACAUAAUAUCACACACACACAAAGUUCUUUUUAGCUAUUCCUACAUAC | 0.472 |

For quick reference, copied from above (block 1):
| Sequence | log2 enrichment |
| --- | --- |
| CUGUGCUACACAUCGUAUGUACCGAAUCGGGGUUUUUUGGGGUUUUUUGGGGUUUUUUGGGAAAGUAUUAUGUUACGCCGUUCGGAUCUG | -0.384 |
| CACAGACAACACGCACCCACACAGACACAGACGGAAGGGGUUGGGAUGGGGACAGGGUGCACAGCAGGGCGGGGUAGGACCCCAGCCCCU | 1.94 |
